# Published values from different studies.
# A part holds a random share of what one study measured.
# Chain of UniProt O15294 (whole entry, looked up): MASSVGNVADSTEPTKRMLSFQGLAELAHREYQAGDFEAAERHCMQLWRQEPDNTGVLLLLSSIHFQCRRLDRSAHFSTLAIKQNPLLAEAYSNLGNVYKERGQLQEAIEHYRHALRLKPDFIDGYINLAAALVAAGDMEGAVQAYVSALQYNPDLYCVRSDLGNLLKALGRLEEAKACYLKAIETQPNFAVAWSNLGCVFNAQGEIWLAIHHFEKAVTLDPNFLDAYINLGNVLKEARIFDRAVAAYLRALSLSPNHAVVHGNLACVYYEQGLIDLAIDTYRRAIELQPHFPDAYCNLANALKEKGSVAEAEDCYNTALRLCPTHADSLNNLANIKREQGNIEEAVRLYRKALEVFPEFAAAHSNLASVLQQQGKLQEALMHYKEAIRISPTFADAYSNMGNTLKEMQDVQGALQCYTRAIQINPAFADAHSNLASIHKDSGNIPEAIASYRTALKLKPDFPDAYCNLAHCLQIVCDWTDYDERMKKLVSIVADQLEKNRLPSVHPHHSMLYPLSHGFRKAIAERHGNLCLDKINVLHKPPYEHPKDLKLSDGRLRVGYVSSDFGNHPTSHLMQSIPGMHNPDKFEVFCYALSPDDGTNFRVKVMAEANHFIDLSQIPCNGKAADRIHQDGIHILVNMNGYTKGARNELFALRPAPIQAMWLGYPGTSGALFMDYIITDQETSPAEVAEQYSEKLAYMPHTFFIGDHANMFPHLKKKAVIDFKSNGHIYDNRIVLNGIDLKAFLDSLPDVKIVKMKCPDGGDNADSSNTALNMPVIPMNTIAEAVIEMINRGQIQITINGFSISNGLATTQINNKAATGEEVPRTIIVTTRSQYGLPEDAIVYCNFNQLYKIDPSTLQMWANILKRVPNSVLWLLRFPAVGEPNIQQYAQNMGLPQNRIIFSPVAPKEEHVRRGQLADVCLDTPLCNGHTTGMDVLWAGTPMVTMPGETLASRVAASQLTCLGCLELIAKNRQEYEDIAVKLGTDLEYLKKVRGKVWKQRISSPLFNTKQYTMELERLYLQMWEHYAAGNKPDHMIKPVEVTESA

# Series 1
# Target: Fragile X messenger ribonucleoprotein 1, C-terminal low-complexity region (Fmr1, Mus musculus, UniProt P35922)
# Method: RNA Bind-n-Seq
# Form: RNA
# Matrix: in vitro
# Tested at: 200 nM
# Notes: whole 134-nt RNA, ends assumed
# Added: 150 mM KCl
# Baseline: input library
# Direction: higher = stronger binding
# Constant ends, left off below: GGGAGUUCUACAGUCCGACGAUC … UGGAAUUCUCGGGUGUCAAGG
Strand,log2 enrichment
CUGUGCUACACAUCGUAUGUACCGAAUCGGGCCCCCCCGGGGCCCCCCCGGCCCCCCCGGGAAAGUAUUAUGUUACGCCGUUCGGAUCUG,-1.11
UAACUUUAGAGGAGGAUCUGAUGGAUAUGGCAGUGGACGUGGAUUUGGGGAUGGCUGUAAUGGGUAUGGAGGAGGACCUGGAGGUGGCAA,0.225
CAAGUCCUGUGCUACACAUCGUAUGUACCGAAUCGGAAAAAGGAAAAAGGAAAGGAAAGUAUUAUGUUACGCCGUUCGGAUCUGCACUUC,-0.89
GUCCUGUGCUACACAUCGUAUGUACCGAAUCGGGGUUUUUGGGUUUUUGGGGUUUUUGGAAAGUAUUAUGUUACGCCGUUCGGAUCUGCA,0.118
AAGUCCUGUGCUACACAUCGUAUGUACCGAAUCGGGAAAAGGAAAAGGGGAAAAGGAAAGUAUUAUGUUACGCCGUUCGGAUCUGCACUU,-0.44
AAGUCCUGUGCUACACAUCGUAUGUACCGAAUCGGGUUUGGGUGGGUUUUUUUGGGAAAGUAUUAUGUUACGCCGUUCGGAUCUGCACUU,1.08
CAAGUCCUGUGCUACACAUCGUAUGUACCGAAUCGGAAAAAGGAAAGGAAAAAGGAAAGUAUUAUGUUACGCCGUUCGGAUCUGCACUUC,-0.699
GUCCUGUGCUACACAUCGUAUGUACCGAAUCGGGGUUUGGGGAAAAAAAGGGGAGGGGAAAGUAUUAUGUUACGCCGUUCGGAUCUGCAC,0.474

# Series 2
# Target: Sal-like protein 4, full length isoform A (SALL4, Homo sapiens, UniProt Q9UJQ4, residues 1-1053)
# Chain of UniProt Q9UJQ4 (whole entry, looked up): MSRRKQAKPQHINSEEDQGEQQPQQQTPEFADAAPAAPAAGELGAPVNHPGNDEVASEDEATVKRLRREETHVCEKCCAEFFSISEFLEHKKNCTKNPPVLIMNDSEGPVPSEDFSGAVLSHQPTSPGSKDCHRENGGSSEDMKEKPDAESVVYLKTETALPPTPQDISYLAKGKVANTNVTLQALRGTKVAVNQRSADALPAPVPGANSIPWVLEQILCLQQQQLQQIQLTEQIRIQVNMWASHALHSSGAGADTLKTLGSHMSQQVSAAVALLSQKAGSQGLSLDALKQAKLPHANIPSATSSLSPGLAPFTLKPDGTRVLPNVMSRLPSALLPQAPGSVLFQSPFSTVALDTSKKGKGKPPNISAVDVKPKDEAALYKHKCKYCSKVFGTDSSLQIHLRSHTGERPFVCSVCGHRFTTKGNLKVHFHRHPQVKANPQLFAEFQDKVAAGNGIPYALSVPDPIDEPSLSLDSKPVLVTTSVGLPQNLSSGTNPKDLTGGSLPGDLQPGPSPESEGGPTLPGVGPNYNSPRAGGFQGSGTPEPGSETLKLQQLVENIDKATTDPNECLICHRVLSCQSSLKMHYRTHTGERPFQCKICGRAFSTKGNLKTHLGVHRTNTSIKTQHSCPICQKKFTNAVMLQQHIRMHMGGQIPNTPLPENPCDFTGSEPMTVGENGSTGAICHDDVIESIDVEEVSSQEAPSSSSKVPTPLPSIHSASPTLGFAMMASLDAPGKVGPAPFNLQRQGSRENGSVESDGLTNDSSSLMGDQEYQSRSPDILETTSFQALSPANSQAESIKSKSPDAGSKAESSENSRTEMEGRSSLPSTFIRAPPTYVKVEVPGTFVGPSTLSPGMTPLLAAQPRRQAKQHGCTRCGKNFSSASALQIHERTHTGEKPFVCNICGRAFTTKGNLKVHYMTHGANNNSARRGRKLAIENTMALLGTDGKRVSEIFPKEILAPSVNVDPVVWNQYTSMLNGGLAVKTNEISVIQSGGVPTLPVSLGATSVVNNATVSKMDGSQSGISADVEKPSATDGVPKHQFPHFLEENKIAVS
# Method: universal PBM
# Form: double-stranded DNA, one strand shown
# Matrix: in vitro
# Tested at: 600 nM
# Notes: 8-mer, flanks averaged, mean of replicates
# Direction: higher = stronger binding
Strand,E-score
GACGGCTC,-0.289
GACCCCTA,-0.294
CTTCTGGA,-0.136
CCAAAATC,0.017
ACCGAGTC,-0.177
CCCACGAA,-0.079
ACAACAGC,-4.5e-05
CCCCTAGG,-0.371

# Series 3
# Target: RING finger protein unkempt homolog, zinc fingers 1-6, GST-SBP tag (UNK, Homo sapiens, UniProt Q9C0B0, residues 30-357)
# Chain of UniProt Q9C0B0 (30-357, looked up): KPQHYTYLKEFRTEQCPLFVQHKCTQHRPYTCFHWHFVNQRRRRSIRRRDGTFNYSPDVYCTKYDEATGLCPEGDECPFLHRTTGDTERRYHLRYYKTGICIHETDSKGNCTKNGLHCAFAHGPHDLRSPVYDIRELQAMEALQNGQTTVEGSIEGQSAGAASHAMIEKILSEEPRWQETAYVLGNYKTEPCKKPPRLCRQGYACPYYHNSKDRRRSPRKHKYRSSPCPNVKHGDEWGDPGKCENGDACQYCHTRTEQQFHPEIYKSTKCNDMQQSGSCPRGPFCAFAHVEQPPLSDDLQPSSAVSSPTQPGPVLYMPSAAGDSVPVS
# Method: RNA Bind-n-Seq
# Form: RNA
# Matrix: in vitro
# Tested at: not given
# Notes: RNA with constant flanks, ends assumed
# Baseline: input RNA pool
# Direction: higher = stronger binding
# Constant ends, left off below: GGGAGUUCUACAGUCCGACGAUC … CAACAGAGGAUUGAGCAUCA
Strand,bound/input enrichment [ratio]
GGCUUCUCCAACUGUAGAGGUACAGAUUGUCUUAACCUGUUCUUUUCUGUACAGACUUAAAAUUUCCCGUGGCUUUUAUUUUUCUUUGUAUUUUAAUUUUCCUACAAAGUCCUUUUUGGA,1.88
AGAAGCUUCCUAAGGAACAAGCAAGUUGAAUAGAGAAAAUAGUGAUCAAUAAUAGGCAUUUCCGUGGUCUUUUUAAUGUUUUCUGCUGCGGAACAUUUCAAGAUUUAUUGAUUUCCUCCU,2.47
CCCUUUUCUAAAAUUGAGAUAACAUAGUUCUUGAAUAUUUUGCUGUAUUUAUAGCCUCAUAUUCCGGCAUUUAUGCACUGAUGUGUCUUCAAUAAAAAUCUUGUACAGAUAUAUUUUUAU,0.66
UUACACAUUUGGUGAGCAGGGCAGCAUUUCCUUCUCCCACUGCUGCUGAGAUGGCAGAAAUCCGUCGAAUUCAGUACGAAAUGGAAUAUACUGAAGGCAUUAGUCAGCGAAUGAGGGUCC,0.293
AAAAGUGAAAUAACAUUAAAGGUGAAUGUGAGGCUUCUACUUUUAUCCAAAAGGAGCUAUAUCCGCCCGGCUGUUUCUGAUAUCCAAUCAUUGGUUUAACAAUAAAGGCAAUUUGUUUAA,0.229
GGCUUUUCCCAGUCCUUCACGCAAGAGCAAGUAGCUGAUAUUGACGGGCAGUAUGCAAUGACCCGGGCUCAGAGGGUCCGAGCUGCCAUGUUCCCUGAGACGCUAGAUGAGGGCAUGCAG,0.108
CUGCUGCAGGGUUGGUACAUUGUGACCUAUGCCUUGGGGAUCUACCAUCUAAAUCUUUUCACCGCUUUUCUUUCUCCCAAAGUGGAUCCUUCCUUAAUGGAAGACUCAGAUGACGGUCCU,0.235
UUGCUGUCUAUUUGUUCCCUUUUGACAGACUGCAACCCUGCGGAUCCUCUGGUUGGAAGCACCGCCACUCAGUAUUUGACCAACAGAGCAGAACACGACAGGAUAGCCAGACAGUGGACC,0.142

# Further values, each from its own experiment
Molecule,target,assay,test system,conditions,how to read,measurement,value
HINHHHQSITIPWWN,"UDP-N-acetylglucosamine--peptide N-acetylglucosaminyltransferase 110 kDa subunit (OGT, Homo sapiens, UniProt O15294)","binding, phage display NGS",peptide,concentration not given,baseline: input library,enrichment fold change,58.6

# For quick reference, copied from above (series 2):
Strand,E-score
CCCCTAGG,-0.371
ACAACAGC,-4.5e-05
CTTCTGGA,-0.136
